{"data": "Assay results gathered from unrelated publications", "note": "Parts stem from different laboratories: compare values within a part only."}
{"data": "Sample 1", "target": "Sal-like protein 4, full length isoform A (SALL4, Homo sapiens, UniProt Q9UJQ4, residues 1-1053)", "method": "universal PBM", "form": "double-stranded DNA, one strand shown", "sample": "in vitro", "tested at": "600 nM", "setting": "8-mer, flanks averaged, mean of replicates", "direction": "higher = stronger binding", "UniProt Q9UJQ4, sequence (whole entry, looked up)": "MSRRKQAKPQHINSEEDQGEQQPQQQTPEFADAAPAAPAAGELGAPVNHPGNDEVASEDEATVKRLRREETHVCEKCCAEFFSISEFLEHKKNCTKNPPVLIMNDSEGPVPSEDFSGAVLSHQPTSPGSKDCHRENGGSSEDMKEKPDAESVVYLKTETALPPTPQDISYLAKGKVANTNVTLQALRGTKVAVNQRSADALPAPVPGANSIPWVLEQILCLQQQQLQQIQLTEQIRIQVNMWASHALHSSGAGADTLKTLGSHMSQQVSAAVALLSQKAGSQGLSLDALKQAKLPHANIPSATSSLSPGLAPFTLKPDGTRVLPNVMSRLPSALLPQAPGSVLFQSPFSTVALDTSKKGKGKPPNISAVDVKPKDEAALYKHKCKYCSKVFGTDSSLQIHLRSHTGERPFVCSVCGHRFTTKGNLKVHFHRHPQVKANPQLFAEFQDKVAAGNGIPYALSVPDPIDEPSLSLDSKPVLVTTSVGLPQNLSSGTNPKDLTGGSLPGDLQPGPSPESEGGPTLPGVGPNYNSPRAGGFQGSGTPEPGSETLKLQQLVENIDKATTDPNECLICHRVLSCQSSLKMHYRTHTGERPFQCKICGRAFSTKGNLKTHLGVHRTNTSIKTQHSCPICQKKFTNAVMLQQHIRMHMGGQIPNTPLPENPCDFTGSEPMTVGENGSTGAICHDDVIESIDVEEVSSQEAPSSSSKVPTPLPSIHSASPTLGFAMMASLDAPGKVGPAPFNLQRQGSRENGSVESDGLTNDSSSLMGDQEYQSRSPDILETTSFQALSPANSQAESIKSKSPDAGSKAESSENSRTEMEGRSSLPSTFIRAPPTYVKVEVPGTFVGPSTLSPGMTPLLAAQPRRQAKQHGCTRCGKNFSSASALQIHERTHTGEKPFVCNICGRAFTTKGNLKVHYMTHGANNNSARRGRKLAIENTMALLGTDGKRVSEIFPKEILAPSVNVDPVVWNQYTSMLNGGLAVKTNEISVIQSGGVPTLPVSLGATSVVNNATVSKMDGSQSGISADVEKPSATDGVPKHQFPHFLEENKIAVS"}
{"Strand": "TATGAAGA", "E-score": 0.329}
{"Strand": "CGGTACTC", "E-score": -0.108}
{"Strand": "AGTTCTTC", "E-score": -0.0396}
{"Strand": "AGACTCCG", "E-score": -0.119}
{"Strand": "ATTTGGGC", "E-score": -0.0642}
{"Strand": "AACCACCT", "E-score": -0.0165}
{"Strand": "GCGTCCGA", "E-score": -0.298}
{"Strand": "CCTCTCGA", "E-score": -0.227}
{"Strand": "AGAGCCGA", "E-score": -0.0541}
{"Strand": "AAAGCTAT", "E-score": 0.207}
{"Strand": "AGAGGTTC", "E-score": -0.00148}
{"Strand": "ACCGCAAT", "E-score": -0.0771}
{"Strand": "ACAGTACT", "E-score": 0.107}
{"Strand": "GAACATTA", "E-score": 0.201}
{"Strand": "GTGGGAAA", "E-score": 0.0289}
{"Strand": "CCCTGAGA", "E-score": -0.243}
{"Strand": "GAACGGAC", "E-score": -0.0999}
{"Strand": "CCAAAGCA", "E-score": -0.00358}
{"Strand": "CACTCCAG", "E-score": -0.0204}
{"Strand": "GAACCTGA", "E-score": -0.172}
{"Strand": "AGGGTTCG", "E-score": -0.276}
{"Strand": "CGCTGTCC", "E-score": -0.151}
{"Strand": "ACCTACAG", "E-score": -0.199}
{"Strand": "GGGAGTTA", "E-score": 0.0511}
{"Strand": "AGTTCACC", "E-score": -0.0962}
{"data": "Sample 2", "target": "RNA binding protein fox-1 homolog 2, RRM domain, GST-SBP tag (RBFOX2, Homo sapiens, UniProt O43251-10, residues 100-194)", "method": "RNA Bind-n-Seq", "form": "RNA", "sample": "in vitro", "tested at": "365 nM", "setting": "natural RNA segment, single round, ends assumed", "reference": "no-protein control", "direction": "higher = stronger binding", "all sequences stand within": "GGGAGUUCUACAGUCCGACGAUC … UGGAAUUCUCGGGUGCCAA"}
{"Strand": "CAGUUCAUCUGGCCUUAACUGAAUGGAUUCCCUAUUUAACCAGAAACUGUUGUCCUCCUGCUAAACACUGUCUGUUAAGGGACUCAGUCAUAUAUGCUUAUUGUUUUGUU", "RBNS enrichment (R)": 0.909}
{"Strand": "AGAAAAAAAGCACAAAGUUCUCAGAGCUCUCGAGGAAAGUGGUUGUCCCCGUACCACCAUGCACUGUAAAUAUCCCUCCCCUCUCUCCCUGGUCCCCUCCCCCAUCCCCA", "RBNS enrichment (R)": 0.901}
{"Strand": "UUCCUAUUAUACUCUGCUUUAUUGAAAAAGUAAAGCAUUUAAAAUUGUGCUCCAGAAAUUCAGAUGUUGUCUUGCGAUCUUUAAACAAUAAAAUGGAUGAUUUCCCCUUA", "RBNS enrichment (R)": 0.936}
{"Strand": "UUUGUUUGGAUAUAGUUUAUAGGAAAGUGUGUGGAUGUAUUAUGGCGGAAGGUUUCUUUAUGUUAUUUUGUUAAUUUAUUGGGACUCUGUGUAAGGCCAGGCUUUAGUGG", "RBNS enrichment (R)": 1.04}
{"Strand": "ACUGGAAGCAGGGGAGGUACGAGAGAACUUUUACCCUGUGGUCCUCAACCUGAGACCAAUAUGCCAGGCCAAGCACAGCCUCCUGGUAUCUCUGGAGCACAACUACAGCA", "RBNS enrichment (R)": 2.23}
{"Strand": "UCAUUGAAUUGCUGAAGUAAUGAUAAUGCCAUGAACCAGGAGAAGAUGGUUGUGGGGGUUUCUAGGAAGCAGCUGCUGUGACAGGCCAAUCCCAGGCUUGCCCCCGAGCC", "RBNS enrichment (R)": 0.677}
{"Strand": "CCUGGCUGUGCCUACCACUCCUGCAUACUGUGCUUAUGUGCGUGCUGCGCUUUGAUGGGGAGGAGGGCAGGUCCCUGUGCAGCCAGGGUUCUUGCUCCUUCCAUGGCAGG", "RBNS enrichment (R)": 1.06}
{"Strand": "UUUUAUUUUCUUCUUUGGUCAUGGGGGCCAAGGAGAAAGGCAUGAAUCUUCCCUGUCAGGCUCUUACAGCCACAGGCACUGUGUCUACUGUCUGGAAGACAUGUCCCCAU", "RBNS enrichment (R)": 0.943}
{"data": "Sample 3", "target": "Prothrombin, mature alpha-thrombin (F2, Homo sapiens, UniProt P00734)", "method": "aptamer microarray, sandwich", "form": "DNA with 2'F-ANA", "sample": "in vitro", "tested at": "200 nM", "setting": "whole 15-mer aptamer, many near background", "added": "Cy3 exosite-II aptamer, 400 nM", "direction": "higher = stronger binding", "strand": "GGTTGGTGTGGTTGG"}
{"Modification": "2'F-ANA at 1 3 4 8 11 12 13 15", "mean fluorescence intensity [a.u.]": 285}
{"Modification": "2'F-ANA at 2 4 5 12 14", "mean fluorescence intensity [a.u.]": 84.9}
{"Modification": "2'F-ANA at 1 2 4 5 6 10 12 15", "mean fluorescence intensity [a.u.]": 52.1}
{"Modification": "2'F-ANA at 8 11 12 15", "mean fluorescence intensity [a.u.]": 719}
{"Modification": "2'F-ANA at 2 3 4 7 8 10 11 12 13 14", "mean fluorescence intensity [a.u.]": 157}
{"Modification": "2'F-ANA at 2 3 4 5 6 7 10 14 15", "mean fluorescence intensity [a.u.]": 48.3}
{"Modification": "2'F-ANA at 1 5 6 7 10 13 14", "mean fluorescence intensity [a.u.]": 50.2}
{"Modification": "2'F-ANA at 6 7 8 9 10 12 15", "mean fluorescence intensity [a.u.]": 210}
{"Modification": "2'F-ANA at 1 4 5 6 7 9 10 11 12 15", "mean fluorescence intensity [a.u.]": 49.1}
{"Modification": "2'F-ANA at 1 5 6 8 9 10 11 13 15", "mean fluorescence intensity [a.u.]": 46.7}
{"Modification": "2'F-ANA at 2 3 4 5 6 9 10 11 12 14 15", "mean fluorescence intensity [a.u.]": 52.8}
{"Modification": "2'F-ANA at 1 3 5 7 9 10 14 15", "mean fluorescence intensity [a.u.]": 45.1}
{"Modification": "2'F-ANA at 3 5 8 9 10 12 13 14", "mean fluorescence intensity [a.u.]": 55.2}
{"Modification": "2'F-ANA at 1 3 4 7 8 9 11 14", "mean fluorescence intensity [a.u.]": 70.9}
{"Modification": "2'F-ANA at 1 2 4 7 8 11", "mean fluorescence intensity [a.u.]": 127}
{"Modification": "2'F-ANA at 2 5 6 7 9 10 11 13", "mean fluorescence intensity [a.u.]": 48.7}
{"Modification": "2'F-ANA at 3 4 6 9 12 15", "mean fluorescence intensity [a.u.]": 805}
{"Modification": "2'F-ANA at 1 3 4 6 8 9 11 14", "mean fluorescence intensity [a.u.]": 69.3}
{"Modification": "2'F-ANA at 3 4 7 8 9 10 15", "mean fluorescence intensity [a.u.]": 361}
{"Modification": "2'F-ANA at 3 5 6 7 10 12", "mean fluorescence intensity [a.u.]": 61.4}
{"Modification": "2'F-ANA at 1 2 4 5 7 10 15", "mean fluorescence intensity [a.u.]": 43.7}
{"Modification": "2'F-ANA at 1 5 8 9 10 11 14 15", "mean fluorescence intensity [a.u.]": 316}
{"data": "Sample 4", "target": "Interferon regulatory factor 5, full length, phosphomimetic (IRF5, Homo sapiens, UniProt Q13568-2, residues 1-514, S451D/S453D/S456D/S462D)", "method": "protein-binding microarray", "form": "double-stranded DNA, one strand shown", "sample": "in vitro", "tested at": "940 nM top", "setting": "60-bp whole probe", "added": "salmon DNA 0.4 mg/ml", "reference": "random background probes", "direction": "higher = stronger binding", "all sequences stand within": "GCCTAGCAC … GTCTTGATTCGCTTGACGCTGCTG"}
{"Strand": "CTCCAACAAGGCTATCCCTCGTGCTAG", "fitted relative affinity [z-score]": -0.253}
{"Strand": "GACGATTTCAGTCTCGAGACGTGCTAG", "fitted relative affinity [z-score]": 1.87}
{"Strand": "GACGATCTCAGACTGGAGCCGTGCTAG", "fitted relative affinity [z-score]": -0.42}
{"Strand": "TTAGGTCTCGGTATCGGTTCGTGCTAG", "fitted relative affinity [z-score]": 6.51}
{"Strand": "TGAGATTTCAGTTCCGATTAGTGCTAG", "fitted relative affinity [z-score]": 1.58}
{"Strand": "TTAGGTATCGACACTGGGTGAGTGCTA", "fitted relative affinity [z-score]": 4.77}
{"Strand": "GACGTTATCGGGTATCGAGACGTGCTA", "fitted relative affinity [z-score]": 0.795}
{"Strand": "TTAGGTATCGGGTATCGGCTAGTGCTA", "fitted relative affinity [z-score]": 6.98}
{"Strand": "GTCGGTTTCGACTATCGGGACGTGCTA", "fitted relative affinity [z-score]": 9.62}
{"Strand": "TTAAGACTGGGGTTTCGGTTAGTGCTA", "fitted relative affinity [z-score]": 6.18}
{"Strand": "TTAGATATCGGTTTCGGTTAGTGCTAG", "fitted relative affinity [z-score]": 8.72}
{"Strand": "TCCTTCCACCATCTGATCAGGTGCTAG", "fitted relative affinity [z-score]": 1.02}
{"Strand": "TTACGTATCCTTCTCCTTTAGTGCTAG", "fitted relative affinity [z-score]": 1.48}
{"Strand": "TTCGAACTGGGGACTGGATTAGTGCTA", "fitted relative affinity [z-score]": -0.047}
{"Strand": "TATTGTGCAATTAGAGCCCTGTGCTAG", "fitted relative affinity [z-score]": -0.732}
{"Strand": "TTAGGTTTCGGTCTCGGTAAGTGCTAG", "fitted relative affinity [z-score]": 15.2}
{"Strand": "TTAGGTCTCCTTATGCTTTAGTGCTAG", "fitted relative affinity [z-score]": 0.146}
{"Strand": "TAAGCAAAAATGATTGGTTGGTGCTAG", "fitted relative affinity [z-score]": -0.45}
{"Strand": "TCATCTTTATGCACTCTCACTGTGCTA", "fitted relative affinity [z-score]": 1.71}
{"data": "Sample 5", "target": "Histone acetyltransferase KAT6A, winged helix 2, GST fusion (KAT6A, Homo sapiens, UniProt Q92794, residues 85-181)", "method": "protein binding microarray", "form": "double-stranded DNA, one strand shown", "sample": "in vitro", "tested at": "not given", "setting": "8-mer, flanks averaged, mean of 2 arrays, mostly near background", "reference": "not given", "direction": "higher = stronger binding", "Construct (chain)": "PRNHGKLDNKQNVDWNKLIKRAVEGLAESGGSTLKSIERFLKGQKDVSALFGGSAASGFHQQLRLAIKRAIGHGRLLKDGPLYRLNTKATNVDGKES"}
{"Strand": "GGAGACGA", "E-score": 0.146}
{"Strand": "GTGTTGCA", "E-score": 0.0343}
{"Strand": "AATACACT", "E-score": -0.0089}
{"Strand": "CTATTTAC", "E-score": -0.149}
{"Strand": "ACCTGTGG", "E-score": -0.155}
{"Strand": "ATAACCGC", "E-score": 0.0135}
{"Strand": "ACAACCTA", "E-score": -0.0831}
{"Strand": "GTCTGTAA", "E-score": -0.0255}
{"Strand": "GGTTTAAC", "E-score": 0.0501}
{"Strand": "ACTGGTTC", "E-score": 0.043}
{"Strand": "ACCGATGG", "E-score": -0.157}
{"Strand": "CGTTTTGA", "E-score": 0.0279}
{"Strand": "AAACATTC", "E-score": -0.114}
{"Strand": "CGATGTCA", "E-score": -0.199}
{"Strand": "CGGTGCTC", "E-score": 0.184}
{"Strand": "ATGAGGGA", "E-score": -0.167}
{"Strand": "AGAACCTG", "E-score": -0.0893}
{"Strand": "AAAGCCTT", "E-score": -0.168}
{"note": "Some of these lines once more (sample 1):"}
{"Strand": "ACAGTACT", "E-score": 0.107}
{"Strand": "AGGGTTCG", "E-score": -0.276}
{"Strand": "CCAAAGCA", "E-score": -0.00358}
{"Strand": "CGGTACTC", "E-score": -0.108}
{"Strand": "ACCGCAAT", "E-score": -0.0771}
{"Strand": "GGGAGTTA", "E-score": 0.0511}
{"Strand": "ACCTACAG", "E-score": -0.199}
{"Strand": "CCCTGAGA", "E-score": -0.243}
{"Strand": "AGTTCTTC", "E-score": -0.0396}
{"Strand": "CACTCCAG", "E-score": -0.0204}
{"Strand": "ATTTGGGC", "E-score": -0.0642}
